Assay results gathered from unrelated publications.
Protocols differ between the studies behind these lines.
PRKCI: Protein kinase C iota type (PRKCI, Homo sapiens, UniProt P41743)
Sequence of UniProt P41743 (whole entry, looked up): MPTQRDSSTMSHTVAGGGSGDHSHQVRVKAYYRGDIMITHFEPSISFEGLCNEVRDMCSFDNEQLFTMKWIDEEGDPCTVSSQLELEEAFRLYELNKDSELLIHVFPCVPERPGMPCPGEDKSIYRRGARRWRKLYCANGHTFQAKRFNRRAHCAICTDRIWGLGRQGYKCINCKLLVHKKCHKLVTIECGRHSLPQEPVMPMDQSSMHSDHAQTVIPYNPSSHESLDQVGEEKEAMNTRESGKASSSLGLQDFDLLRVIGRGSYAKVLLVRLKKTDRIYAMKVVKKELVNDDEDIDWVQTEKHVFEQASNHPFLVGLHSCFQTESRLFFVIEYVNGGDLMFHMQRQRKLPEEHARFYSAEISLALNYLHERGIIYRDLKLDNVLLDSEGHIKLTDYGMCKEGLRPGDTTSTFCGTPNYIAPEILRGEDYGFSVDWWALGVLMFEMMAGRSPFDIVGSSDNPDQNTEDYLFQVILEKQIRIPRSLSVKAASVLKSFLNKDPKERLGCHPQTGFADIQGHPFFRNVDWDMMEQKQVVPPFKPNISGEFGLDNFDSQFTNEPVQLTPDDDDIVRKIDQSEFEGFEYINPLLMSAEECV
Sequence of UniProt O75116 (whole entry, looked up): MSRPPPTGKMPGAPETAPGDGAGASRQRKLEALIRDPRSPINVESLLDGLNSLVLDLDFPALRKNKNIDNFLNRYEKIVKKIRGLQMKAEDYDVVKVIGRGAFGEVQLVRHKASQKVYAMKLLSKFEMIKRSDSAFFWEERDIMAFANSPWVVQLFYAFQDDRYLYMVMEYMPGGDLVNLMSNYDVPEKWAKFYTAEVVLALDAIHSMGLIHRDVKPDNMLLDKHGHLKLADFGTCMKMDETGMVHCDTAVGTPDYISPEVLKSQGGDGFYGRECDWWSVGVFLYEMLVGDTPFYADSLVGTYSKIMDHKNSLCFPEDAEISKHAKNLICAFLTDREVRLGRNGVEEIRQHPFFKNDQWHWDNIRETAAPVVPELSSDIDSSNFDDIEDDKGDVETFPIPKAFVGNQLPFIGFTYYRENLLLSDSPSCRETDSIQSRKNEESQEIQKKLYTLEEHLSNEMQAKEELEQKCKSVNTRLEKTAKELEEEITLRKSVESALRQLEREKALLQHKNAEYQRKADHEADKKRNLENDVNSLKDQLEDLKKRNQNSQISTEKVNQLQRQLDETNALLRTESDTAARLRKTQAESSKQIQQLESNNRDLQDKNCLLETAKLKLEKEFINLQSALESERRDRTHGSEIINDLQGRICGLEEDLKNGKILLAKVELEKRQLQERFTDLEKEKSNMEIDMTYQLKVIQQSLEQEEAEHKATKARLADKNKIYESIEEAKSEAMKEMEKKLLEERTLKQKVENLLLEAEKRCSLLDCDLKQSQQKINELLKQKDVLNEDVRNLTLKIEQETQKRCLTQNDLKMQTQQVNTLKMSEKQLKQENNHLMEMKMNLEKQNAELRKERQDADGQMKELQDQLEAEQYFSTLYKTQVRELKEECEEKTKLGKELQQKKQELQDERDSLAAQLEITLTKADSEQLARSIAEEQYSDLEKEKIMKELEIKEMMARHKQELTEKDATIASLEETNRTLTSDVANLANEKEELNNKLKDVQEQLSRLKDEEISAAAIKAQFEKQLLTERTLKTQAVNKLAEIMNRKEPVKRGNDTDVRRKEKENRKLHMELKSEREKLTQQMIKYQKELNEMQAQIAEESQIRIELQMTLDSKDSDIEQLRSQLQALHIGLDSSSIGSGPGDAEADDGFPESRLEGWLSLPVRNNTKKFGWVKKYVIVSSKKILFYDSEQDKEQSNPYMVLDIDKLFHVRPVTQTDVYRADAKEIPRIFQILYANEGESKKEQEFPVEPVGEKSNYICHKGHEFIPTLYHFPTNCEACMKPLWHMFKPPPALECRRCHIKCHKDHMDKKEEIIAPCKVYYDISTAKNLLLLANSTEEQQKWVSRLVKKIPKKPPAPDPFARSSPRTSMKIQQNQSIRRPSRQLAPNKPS
Sequence of UniProt Q8IW41 (whole entry, looked up): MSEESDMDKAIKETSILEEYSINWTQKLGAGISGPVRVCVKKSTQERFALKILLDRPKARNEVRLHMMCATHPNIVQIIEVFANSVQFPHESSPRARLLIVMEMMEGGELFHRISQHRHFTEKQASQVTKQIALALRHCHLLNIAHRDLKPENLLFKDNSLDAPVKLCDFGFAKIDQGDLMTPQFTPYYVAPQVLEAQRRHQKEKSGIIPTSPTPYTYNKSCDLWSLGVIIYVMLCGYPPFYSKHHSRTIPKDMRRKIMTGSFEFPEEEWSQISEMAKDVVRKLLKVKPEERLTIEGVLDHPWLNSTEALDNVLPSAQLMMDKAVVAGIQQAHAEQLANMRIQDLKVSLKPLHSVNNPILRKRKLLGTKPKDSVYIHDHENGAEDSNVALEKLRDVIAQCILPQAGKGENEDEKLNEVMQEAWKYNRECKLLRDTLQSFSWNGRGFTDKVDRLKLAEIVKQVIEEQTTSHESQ
Sequence of UniProt P33424 (whole entry, looked up): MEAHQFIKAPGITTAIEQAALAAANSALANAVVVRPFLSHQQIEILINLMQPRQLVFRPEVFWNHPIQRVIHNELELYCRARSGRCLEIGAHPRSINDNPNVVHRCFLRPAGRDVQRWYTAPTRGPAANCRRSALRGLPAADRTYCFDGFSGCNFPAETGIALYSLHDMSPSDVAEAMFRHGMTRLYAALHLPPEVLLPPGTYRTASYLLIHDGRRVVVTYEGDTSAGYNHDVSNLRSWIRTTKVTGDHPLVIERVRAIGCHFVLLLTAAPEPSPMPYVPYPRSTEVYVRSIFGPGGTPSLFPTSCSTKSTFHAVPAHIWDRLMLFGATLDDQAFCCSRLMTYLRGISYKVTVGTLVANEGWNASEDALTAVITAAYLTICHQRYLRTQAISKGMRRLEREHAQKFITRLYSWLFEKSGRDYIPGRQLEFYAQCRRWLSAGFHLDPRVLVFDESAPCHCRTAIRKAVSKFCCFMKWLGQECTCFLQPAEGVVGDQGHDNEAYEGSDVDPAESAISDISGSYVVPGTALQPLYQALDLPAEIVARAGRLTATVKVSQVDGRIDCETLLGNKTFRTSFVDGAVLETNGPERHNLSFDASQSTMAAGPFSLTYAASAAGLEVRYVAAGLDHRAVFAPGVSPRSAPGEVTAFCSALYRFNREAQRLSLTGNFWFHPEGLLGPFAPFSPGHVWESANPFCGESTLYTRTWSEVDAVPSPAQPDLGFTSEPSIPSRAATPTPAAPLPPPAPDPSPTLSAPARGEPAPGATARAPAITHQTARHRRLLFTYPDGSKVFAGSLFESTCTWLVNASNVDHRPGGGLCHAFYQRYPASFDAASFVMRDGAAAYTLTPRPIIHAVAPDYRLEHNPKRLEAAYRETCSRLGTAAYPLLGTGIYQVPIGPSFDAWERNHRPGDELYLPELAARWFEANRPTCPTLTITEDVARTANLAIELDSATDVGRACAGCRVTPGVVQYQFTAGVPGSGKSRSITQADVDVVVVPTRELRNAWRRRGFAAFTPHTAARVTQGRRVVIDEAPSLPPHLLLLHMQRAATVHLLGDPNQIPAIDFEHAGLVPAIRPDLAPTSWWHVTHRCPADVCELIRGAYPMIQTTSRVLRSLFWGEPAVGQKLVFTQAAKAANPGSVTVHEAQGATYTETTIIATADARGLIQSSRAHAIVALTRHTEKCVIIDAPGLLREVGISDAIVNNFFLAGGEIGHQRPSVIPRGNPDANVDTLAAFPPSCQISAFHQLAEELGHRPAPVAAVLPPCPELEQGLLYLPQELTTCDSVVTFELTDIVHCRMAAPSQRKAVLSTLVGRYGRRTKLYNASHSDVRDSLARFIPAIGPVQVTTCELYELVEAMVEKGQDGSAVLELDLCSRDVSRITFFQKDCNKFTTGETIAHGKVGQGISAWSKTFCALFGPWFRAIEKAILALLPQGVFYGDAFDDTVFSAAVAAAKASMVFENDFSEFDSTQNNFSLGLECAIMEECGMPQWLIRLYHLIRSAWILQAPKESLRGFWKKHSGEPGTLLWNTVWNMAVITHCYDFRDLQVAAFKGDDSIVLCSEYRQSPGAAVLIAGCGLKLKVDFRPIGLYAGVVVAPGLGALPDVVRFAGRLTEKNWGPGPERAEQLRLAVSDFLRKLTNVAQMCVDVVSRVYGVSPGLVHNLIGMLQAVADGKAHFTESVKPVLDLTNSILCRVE

`NC(=O)c1ncn([C@@H]2O[C@H](CO[P@@](=O)(O)O[P@](=O)(O)OP(=O)(O)O)[C@@H](O)[C@H]2O)n1` has a remaining activity of 82.2% (Non-structural polyprotein pORF1, RNA-dependent RNA polymerase (Hepatitis E virus genotype 1, UniProt P33424); polymerase activity, inhibitor, colorimetric; 3.5 µM; baseline: untreated).
The remaining activity of `O=C(O)c1ccc(Nc2ncc3c(n2)-c2ccc(Cl)cc2C(c2c(F)cccc2F)=NC3)cc1` is reported as 111% (human HIPK3(h); kinase activity; 1 µM).
With `COc1cc(-c2cncc3c2CN(C)Cc2cc(N4CCNCC4)ccc2-3)cc(OC)c1OC` the remaining activity was 123% (Serine/threonine-protein kinase WNK4 (WNK4, Homo sapiens, UniProt Q96J92); kinase activity; 1 µM, human enzyme, added: ATP 10 µM; baseline: DMSO control).
For `C=CC(=O)N1CCC[C@@H](n2nc(-c3ccc(Oc4ccccc4)cc3)c3c(N)ncnc32)C1`, the remaining activity was 28.6% (Non-receptor tyrosine-protein kinase TYK2 (TYK2, Homo sapiens, UniProt P29597); 10 µM).
For `Cc1cc(Nc2cc(N3CCN(C)CC3)nc(Sc3ccc(NC(=O)C4CC4)cc3)n2)[nH]n1`, the remaining activity was 109% (MAP kinase-activated protein kinase 5 (MAPKAPK5, Homo sapiens, UniProt Q8IW41); kinase activity, KinaseProfiler; 0.03 µM, species human; baseline: control).
`COc1cc(Nc2ncc3c(n2)-c2ccc(Cl)cc2C(c2c(F)cccc2OC)=NC3)ccc1C(=O)O` gave a remaining activity of 97% (PRKX; kinase activity; 1 µM).
With `COc1cc(F)ccc1-c1ncnc(Nc2cccc(C[S@](C)(=N)=O)c2)n1` the remaining activity was 104% (PRKCI; kinase activity; 10 µM, added: 10 µM ATP).
`O=C(NC1CCC1)c1ccc2nc(-c3cccc(NS(=O)(=O)NCCN4CCCCC4)c3)cn2c1` has a remaining activity of 98% (Rho-associated protein kinase 2 (ROCK2, Homo sapiens, UniProt O75116); enzyme activity; 10 µM).
The remaining activity of `CNc1ncc2c(/C=C/C(=O)N3CCC(OC)CC3)nn(Cc3cccc(C(F)(F)F)c3)c2n1` is reported as 95% (PRKCI; kinase activity, inhibitor; 1 µM; baseline: untreated control).
